# Measured values from different studies.
# Each numbered part is a random draw from the data of one study; scales do not carry over between parts.

# Series 1
# Target: RING finger protein unkempt homolog, zinc fingers 1-6, GST-SBP tag (UNK, Homo sapiens, UniProt Q9C0B0, residues 30-357)
# UniProt Q9C0B0, sequence (30-357, looked up): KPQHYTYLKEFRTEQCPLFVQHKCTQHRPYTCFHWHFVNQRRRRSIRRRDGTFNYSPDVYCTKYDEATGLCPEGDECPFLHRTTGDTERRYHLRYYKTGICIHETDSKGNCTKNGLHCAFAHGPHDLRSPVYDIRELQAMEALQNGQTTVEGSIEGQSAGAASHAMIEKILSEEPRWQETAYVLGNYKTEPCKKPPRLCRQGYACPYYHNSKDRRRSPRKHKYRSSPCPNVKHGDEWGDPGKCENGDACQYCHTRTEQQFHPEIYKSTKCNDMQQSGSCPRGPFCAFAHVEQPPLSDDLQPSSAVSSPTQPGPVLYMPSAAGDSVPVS
# Method: RNA Bind-n-Seq
# Form: RNA
# Medium: in vitro
# Tested at: not given
# Setting: RNA with constant flanks, human-mouse chimeric sites, ends assumed
# Relative to: input RNA pool
# Direction: higher = stronger binding
# All sequences stand within: GGGAGUUCUACAGUCCGACGAUC … CAACAGAGGAUUGAGCAUCA
Oligonucleotide,bound/input enrichment [ratio]
AAAAUAGACUAUGGCGAGUACAUGGAUAAAAACAAUGUGAGGCGGCAAGCAACAACAAUCAUAGCUGAUAAUAUUAUAUUUCUGAGUGACCAGACAAAAGAAAAGGCAUAGAACGGAUGA,8.01
CAGACUGUGUCAUACUUUUUAGACAUUCACAUCAGACUUACAGAGCAUUGGGCCUCUUUCUAGGUUUGUGUUAUUUCUCAGCUAUGGAUAUGAUCAAAUGAGAACACUGCUUAACUAAUG,1.07
UGUAGUUUCUUGAUUUAUCAUUUUUCUCUUUUCUUUCUUUCCUUUAGGAAAAGCCUAAAGAUUAGGUUGUAAGAAAAGAAAAUAGAAUGUUUCGAAGACCUGUGUUAAUUACAGGUAGUC,0.519
UAAAUUAGCCAGCACCAUUUCUGUUUCUCCCUGGGCUGCGGAAAGCCAGAAGAUUUUAUCUAGUUUGUACAAGGCUGCUGGUGUUCCCUCUUUUUUUCCACGAGGGUGUUUUUGGCUGCA,1.81
CUCAUGGCUGCAGAAACAGGAAGUGGAAAAACUGGUGCUUUUAGUAUUCCCGUUAUCCAGAUAGUGUAUGAAACUCUGAAAGACCAACAGGAAGGCAAGAAAGGGAAAACAACUAUUAAA,0.704
AAAGCCCAAGUAUUUUGAAAAAACUCGAACAGAUUUGACAAGGGUAGCCAGCUUGGAGUCUAGCAAUUUGCCAAUGUGUUUACCAAUCUGGGGGCUUGUUUUUCUUUUCUUCUUUCAAAU,0.506
UACAUCACCAAUGUCCUACAAAAUCCUGACUUGGCUCUGAGAAUGGCUGUGCGGAACAACUUAGCUGGUGCUGAAGAACUCUUUGCCCGGAAAUUUAAUGCUCUCUUCGCCCAGGGAAAC,0.267
UCAGGAACCCAGACAAAUAUGAAUGUAAAUGAAGUCAUUAGCAACAGAGCAAUUGAAAUGUUAGGAGGUGAACUUGGCAGCAAGAAGCCUGUGCAUCCCAAUGAUCAUGUUAACAAAAGC,0.388
CUCAGAGACGUGGCAUAUCAGUAUGUGAAAAAGGGGGCUCGUAUAUUUGUGGAAGGGAAAGUGGACUAUGGCGAGUACAUGGAUAAAAAUAAUGUGAGGCGGCAAGCAACAACAAUCAUA,0.412
CUCAGAGAUGUGGCAUAUCAAUAUGUGAAAAAGGGGGCUCGUAUAUUUGUGGAAGGGAAAAUAGACUAUGGCGAGUACAUGGAUAAAAACAAUGUGAGGCGGCAAGCAACAACAAUCAUA,0.497
GCAAAGGAUGAUGAGGCAGCUGCAGUUGCACUUUCCUCUCUCGUUCAUGCUUUGGAUGAGUUAAACAUGGUCGCCAUCGUCCGAUAUGCUUAUGACAAAAGAUCUAAUCCUCAAGUUGGU,0.129

# Series 2
# Target: Histone acetyltransferase KAT6A, both winged helices, GST fusion (KAT6A, Homo sapiens, UniProt Q92794, residues 1-181)
# Method: protein binding microarray
# Form: double-stranded DNA, one strand shown
# Medium: in vitro
# Tested at: not given
# Setting: 8-mer, flanks averaged, mean of 2 arrays, mostly near background
# Relative to: not given
# Direction: higher = stronger binding
# Residues (chain): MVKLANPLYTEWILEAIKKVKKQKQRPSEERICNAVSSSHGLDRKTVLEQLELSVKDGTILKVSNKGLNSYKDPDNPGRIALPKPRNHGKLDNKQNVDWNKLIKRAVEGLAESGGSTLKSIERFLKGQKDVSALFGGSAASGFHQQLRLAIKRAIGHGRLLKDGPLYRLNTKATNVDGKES
Oligonucleotide,E-score
TACACCAA,-0.101
GACCACTA,-0.201
ATGCAGCA,-0.106
CTACCTAA,-0.0513
CTCAAAGC,-0.00259
ACACCGGT,0.135
CGATGTGC,0.0979
CTCCATTC,-0.178
ATGCCAGG,-0.182
CATGGCCC,-0.0719
CCCTCCTA,-0.127
TCTCTCCA,-0.144
TCATAGGA,-0.159
CTGGAGAC,-0.1
ATTGATGA,-0.12
AAACCCTA,-0.278
GATGTGAC,0.0317
GAACCGTA,0.211
CAATATCA,0.00743
ACCGACGT,0.0617
CGTAACGA,0.0136
ACTCAGAA,-0.134
ATCGATGA,-0.034
GCTATCCA,-0.0406
TACTAGGA,-0.321

# Series 3
# Target: Sal-like protein 4, full length isoform B (SALL4, Homo sapiens, UniProt Q9UJQ4-2, residues 1-616)
# Method: universal PBM
# Form: double-stranded DNA, one strand shown
# Medium: in vitro
# Tested at: not given
# Setting: 8-mer, flanks averaged, mean of replicates
# Direction: higher = stronger binding
# Construct (chain): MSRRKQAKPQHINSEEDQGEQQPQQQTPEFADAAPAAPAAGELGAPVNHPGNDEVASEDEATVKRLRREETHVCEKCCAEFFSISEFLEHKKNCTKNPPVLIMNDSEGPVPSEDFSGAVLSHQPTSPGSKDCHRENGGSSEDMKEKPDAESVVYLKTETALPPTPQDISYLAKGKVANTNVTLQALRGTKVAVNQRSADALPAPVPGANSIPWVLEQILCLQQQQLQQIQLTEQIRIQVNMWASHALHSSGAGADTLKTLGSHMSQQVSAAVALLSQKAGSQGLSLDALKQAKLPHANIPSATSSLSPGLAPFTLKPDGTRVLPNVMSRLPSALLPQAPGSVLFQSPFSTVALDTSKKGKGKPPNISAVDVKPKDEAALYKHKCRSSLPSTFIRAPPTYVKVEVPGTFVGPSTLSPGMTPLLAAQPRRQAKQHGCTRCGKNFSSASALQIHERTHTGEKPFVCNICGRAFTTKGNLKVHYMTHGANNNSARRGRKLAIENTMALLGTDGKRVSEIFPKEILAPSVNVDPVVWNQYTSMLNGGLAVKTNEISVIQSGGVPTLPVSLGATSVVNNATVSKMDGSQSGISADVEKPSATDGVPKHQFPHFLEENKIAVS
Oligonucleotide,E-score
GTGACAAC,-0.0179
AAAAACAA,0.261
ACTAAAGG,0.0964
AGATTGTA,0.224
TAGGGTAA,0.115
AGATTAGA,0.172
CCGGGATC,-0.377
CCCTATGC,-0.0786
ACTTGAAG,0.129
CGAGTAGC,-0.0969
TCAATACA,0.251
GAGGAGCC,-0.232
CAAGGATG,0.0314
CACAGAAG,-0.0953
CGCCGTTA,-0.0504
CCACTACC,-0.094
AGAGGTAG,-0.0314
TCAATCGA,0.0302
AGCCCCGG,-0.448
ATCGTCGA,-0.0927
CGCGAACA,-0.04
AGTCGTCG,-0.148
AGAACAGA,0.0138
CCTTCCTA,-0.0962
CCTCTATA,0.13

# Series 4
# Target: TAR DNA-binding protein 43, full length, His tag (TARDBP, Homo sapiens, UniProt Q13148, residues 1-414)
# Method: RNA Bind-n-Seq
# Form: RNA
# Medium: in vitro
# Tested at: 20 nM
# Setting: 6-mer, flanks averaged, single round
# Together with: 150 mM LiCl
# Relative to: input library
# Direction: higher = stronger binding
Oligonucleotide,6-mer enrichment (R)
AUAAGA,0.971
GUCUGC,0.954
ACAGGU,0.902
UUUUGC,1.24
ACAACA,0.895
UCGGCC,0.927
GGAAAG,1.05
GCUCCU,0.964
ACUUAA,0.851
UGGGUC,1.08
AUCCUU,0.929
UAGUCU,0.877
GUCUAA,0.869
AGUACA,0.841

# Series 5
# Target: RNA binding protein fox-1 homolog 2, RRM domain, GST-SBP tag (RBFOX2, Homo sapiens, UniProt O43251-10, residues 100-194)
# Method: RNA Bind-n-Seq
# Form: RNA
# Medium: in vitro
# Tested at: 365 nM
# Setting: natural RNA segment, single round, ends assumed
# Relative to: no-protein control
# Direction: higher = stronger binding
# All sequences stand within: GGGAGUUCUACAGUCCGACGAUC … UGGAAUUCUCGGGUGCCAA
# Target sequence (chain): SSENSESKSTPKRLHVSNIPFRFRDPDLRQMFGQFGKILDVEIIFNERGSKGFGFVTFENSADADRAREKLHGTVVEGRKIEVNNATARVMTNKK
Oligonucleotide,RBNS enrichment (R)
UUCCUGUGUGGGGUUCAGCGUAGAAAACGCACCUCCAUCCCGCCCUUCCCACAGCAUUCCUCCAUCUUAGAUAGAUGGUACUCUCCAAAGGCCCUACCAGAGGGAACACG,0.535
UUUAUGACAUUCUCUGUCUACUCAGAUCAUAGUGAAAACUGGAAACAAAAAAAAAAAACAGCCUCUUCUUGGAAAGUGACAGCAGAAGGUGGCAUGGAGCUUGUGUCCUU,0.734
GCGGUCCGUGCACCAUGCCGCCUGUGACCUGCAUCUGCUCCAAGCAGAGACUUUGGCUUUUUGUUUAAAGAUGCCUUUAUUUUAGAUCCAGGAGGGGUUUGCUCUGAAUU,0.439
GGGUGGGUUGGUGUCUCUUAUCGCUCCACUGGGGUUCCUCUCUGGAUACAGGAGGUGGCUUCUUCAGGUUCCAUAUCCCCAAUGGUGUGAAUCACAGCUAAGAUCACCUC,0.317
UUAAAAGAUGCCUGGGUACCUUUUAUUUUAUGGCAUUUGUAUUAAAAAUAAAGUAUGAUGGUAAGAAAAUAGCUUUUAAACUGCUUCUUUUCAUUCACCCCACUUUCUUU,0.38
UUAUGUGUUGGGUGACCACAAAAUCAACAGUAACUGAGAGAAACGAAUUCAUUUUGUAAAUAAUGUUCAACGUUAAGAAUACCUAUAUUCCUUUUGUAGAUGAGUAUGAU,0.916
ACAAGAGGACUAGAGUUCAUCAAGCCUUGAAAGGCAGGCUUCACAGUGCCGAGUUGGCGGGAAAAGCAAAUUCUUUUGAAGUCUUAGUCUUUCCCUCAGUAGCGGUUUCU,0.227
GCCCCGUGUAGGCAUCGUCGGUCGGUUUGCCGUCAGAGAUGGCGCAUCUCGCUGCAUCCCCCGAGAGUACACCGGUUGCUCUAGCCACCUGCGGCCCGCCCAUCUGCGCU,0.389
AAUUUUAUACAAAUCUUUUAUAGAAGAAUUGCCCAUGUCAAUAUAUGUUCAGAGUUAAAUAUUAACCAUAAAUUCGCAGCAAUGCUGUAUUGUGUCAUUGAAGUUCCCAG,0.549
UUUUCUUUUUUCUUUCUAGCAUUUGAUGUCUAAAUAAUUUUGGACAUCUUUUUCCUAGACCAUGUUUCUGUCUUACUCUUAAACCUGGUAACACUUGAUUUGCCUUCUAU,0.331
AGUAGCCCUGUAAGGAGGGGCAGAGUGGCUGGUGCUACAGACGUCACAUGGGCUCUUUGGGGGUCUGUCUGCUGGGGCAGGAAUAAUCCCAGUUCUCUGACUCUCGCUCU,0.653
UUUAAAUAAGGGGAAAUAGUAUCUUUAAAGUUAAUGUCUAGCCAAGAGUUUAGUAAACGAAGAAUUAAACUGCACUGUUGAUCGGUGCUUUGUGUAAAUACAUCUUUAAC,0.802

# For quick reference, copied from above (series 2):
Oligonucleotide,E-score
ACACCGGT,0.135
CGATGTGC,0.0979
CTCCATTC,-0.178
ATGCCAGG,-0.182
CATGGCCC,-0.0719
CCCTCCTA,-0.127
TCTCTCCA,-0.144
TCATAGGA,-0.159
CTGGAGAC,-0.1
ATTGATGA,-0.12
AAACCCTA,-0.278
GATGTGAC,0.0317
GAACCGTA,0.211
